Experimental data collected from several papers.
± gives the spread as reported.

SMILES	target or system	assay	system	setting	how to read	quantity	result
Cc1ncsc1-c1ccc(C(C)NC(=O)C2CC(O)CN2C(=O)C(NC(=O)CCCCCCCCCCN2CCCC(Nc3ncc(Cl)c(Nc4ccccc4S(=O)(=O)C(C)C)n3)C2)C(C)(C)C)cc1 (stereo not shown)	22Rv1	RNA-seq, measured: ZNF525 mRNA		concentration not given	reference: DMSO	log2 fold change	-1.12
N#Cc1c(Nc2ccccc2C(F)(F)F)s[nH]c1=O	human iPSC-derived motor neurons	protection from axon fragmentation		16 h, after axotomy		EC50	5000 nM
CC[C@H]1CN([C@@H](CC)c2ccc(C(F)(F)F)cc2)[C@H](CC)CN1c1nc(=O)n(C)c2ccc(C#N)nc12	human CD4+ T cells	protein phosphorylation, phosphoproteomics, measured: SAMD1 phosphosite		1 h, stimulation 60 min		EC50	11.7 nM
CC[C@H]1CC[C@H]2[C@@H]3C[C@@H](O)[C@@]4(O)C[C@H](N)CC[C@]4(C)[C@H]3CC[C@]12C	HMC3	phagocytosis, high-content imaging		geometric mean, together with: pHrodo-myelin uptake		EC50	117 nM
CN(C)Cc1nc(Nc2ccc(-c3cnc4cc(F)ccn34)c3c2C(=O)NC3)ccc1C1CCOC1 (stereo not shown)	human CD8 T cells	cytokine induction, measured: IFNγ		together with: anti-CD3/CD28		EC50	11 nM
COc1ccc(NC(=O)c2ccc3[nH]c(-c4ccc(N(C)C)cc4)nc3c2)cn1	YAPC	cell growth, CellTiter-Glo				EC50	5710 nM
Cc1ccncc1.[Cl-].[Cl-].[Ru+2].c1cc(-c2ccc3cccnc3n2)nc(-c2ccc3cccnc3n2)c1.c1ccc2cc3nc4c5cccnc5c5ncccc5c4nc3cc2c1	SK-MEL-28	cell viability		dark, hypoxia 1 % oxygen		EC50	67900 ± 800 nM
COC1CN([C@H]2CC[C@H]([C@@]3(C)Oc4c(Cl)cc(C(=O)NCc5c(SC)cc(C)[nH]c5=O)c(C)c4O3)CC2)C1		RNA-seq, measured: DTNA mouse homolog	mouse, HT-1376 xenograft, whole blood	dose not given	reference: vehicle	log2 fold change	0.219
COc1ccc(N(CC2CC2)S(=O)(=O)C2CC3OC2C(c2ccc(O)cc2)=C3c2ccc(O)cc2)cc1 (stereo not shown)	MCF7 3xERE-luc, steroid-deprived	ERE luciferase reporter, agonist				EC50	126 nM
C=CC(=O)Nc1cccc(Cn2ncc3cnc(Nc4cnn(CCOC)c4)nc32)c1	WEE1 human	binding, KINOMEscan		100 nM	lower = stronger binding	percent of control	100%
COc1ccc(N(CCO)S(=O)(=O)C2CC3OC2C(c2ccc(O)cc2)=C3c2ccc(O)cc2)cc1 (stereo not shown)	MCF7 3xERE-luc, steroid-deprived	ERE luciferase reporter, agonist				EC50	1.26 nM
CCN(CC)c1ccc2c(c1)O[B-]1(c3ccccc3C#N)OC(=O)C(c3ccccc3)=N[N+]1=C2CC(C)C (stereo not shown)	HMC3	cell viability, CCK-8		24 h		EC50	379000 ± 160000 nM
Nc1ncc(-c2cc(-c3cnn(CC(F)(F)F)c3)ncc2F)nc1C(=O)NC1CNCC(F)C1 (stereo not shown)	ZAK	KINOMEscan		1 µM	reference: DMSO control	remaining binding	82%
CC(C)(C)c1cc(-c2ccc3cccnc3n2)nc(-c2ccc3cccnc3n2)c1.COc1ccncc1.[Cl-].[Cl-].[Ru+2].c1ccc2cc3nc4c5cccnc5c5ncccc5c4nc3cc2c1	SK-MEL-28	cell viability		dark, hypoxia 1 % oxygen		EC50	90900 ± 2000 nM
C=C(NC(=O)c1csc(-c2ccc(NC(=O)CCCCCBr)cc2)n1)C(=O)NC(=C)C(=O)OC	SCC-61	cell viability				EC50	1800 nM
CNS(=O)(=O)Nc1nccc(Cc2c(C)c3ccc(Oc4ncccc4F)cc3oc2=O)c1F	UACC-893	cell viability		7 days		IC50	> 1000 nM

Excerpt of the above:
SMILES	target or system	assay	system	setting	how to read	quantity	result
C=CC(=O)Nc1cccc(Cn2ncc3cnc(Nc4cnn(CCOC)c4)nc32)c1	WEE1 human	binding, KINOMEscan		100 nM	lower = stronger binding	percent of control	100%
C=C(NC(=O)c1csc(-c2ccc(NC(=O)CCCCCBr)cc2)n1)C(=O)NC(=C)C(=O)OC	SCC-61	cell viability				EC50	1800 nM
